Experimental data collected from several papers.
Each numbered part is a random draw from the data of one study; scales do not carry over between parts.

Series 1 — method: RNA Bind-n-Seq; molecule type: RNA; medium: in vitro; tested at: 365 nM; baseline: no-protein control; reading: higher = stronger binding; measurement: RBNS enrichment (R)
Target: RNA binding protein fox-1 homolog 2, RRM domain, GST-SBP tag (RBFOX2, Homo sapiens, UniProt O43251-10, residues 100-194)
Notes: natural RNA segment, single round, ends assumed
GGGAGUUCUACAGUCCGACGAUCGGGGUCCUGGCCACCUCCUAAGCCACUAACGCCACCUUGCCACCUUGUCCCAGUUGUCCAAAACAGCUGGAACUUGUCUUCACCGCCCAGGGCACCGCCUCCCCGUGUCCUGGAAUUCUCGGGUGCCAA: 0.45
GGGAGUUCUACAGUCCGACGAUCUUUUUUUUUCUGAUUCAAAUUCUACAGUAGAAUGGAGGGCAGAAUUACUGGGACACAAUCACCACUCAGCUAGAAUGGAGAUUCAAGGAAAUGGAAGGUACUAGAAACAGUGGAAUUCUCGGGUGCCAA: 0.466
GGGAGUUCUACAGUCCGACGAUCCCAGGUUUUUGUCAGGUACCACAUGUAGAAUUACAUUUUUCUUAAAAGAUUGAUCAUCCAAAUGGCAAAUUUCUUAGAGUCCAUAACUGAUUUGAUAGAUUUUUCUUUUUUGGAAUUCUCGGGUGCCAA: 0.721
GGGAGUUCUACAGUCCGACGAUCAGAAAGAGUAGAUGGGCCCAAGCACAGCCUCCUCAUGCGUGAAAUAAUGCCAAAUGCUCUUUAGUAAAAUGCUGAAUUACGGUGUUUUUUUUUUUUUUGCAUCAUUUGUCUGGAAUUCUCGGGUGCCAA: 0.597
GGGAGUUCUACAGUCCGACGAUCUCUUAGCAUCUCCUCUAGUAUUUUCCAUGUAUCAGGACAGAGGUGUCUUAUGUAGGGAGGGGGCAAGUAUGAAGUAAGGUAAUUAUAUACUACUCUCAUUCAGGAUUCUUUGGAAUUCUCGGGUGCCAA: 0.392
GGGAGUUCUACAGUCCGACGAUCGCAGGCUCUCCUGUCACCCCGCAUCACCUCACCCUUCUCUGUCCCUCAGCCUUCAGUCACAUUUAGUCAUGGUCUGCCUGUGAGCGCAGUGAGUUCUCUCCUGACAGCUGUGGAAUUCUCGGGUGCCAA: 1.08
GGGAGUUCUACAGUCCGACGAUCUCAAGAGCAGUGCUUCUCCAUUUGUUUUGCAGAGAAAUGUUUUUCAUUUCCCGUGUGUUUCCAUUUCCUUCUGAAAUUCUGAUUUUAUCCAUUUUUUUAAGGCUCCUCUUUGGAAUUCUCGGGUGCCAA: 0.956
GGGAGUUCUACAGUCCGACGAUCACAACAUUCAUCAUUUUACAUCCAGCUUUUUCACUUGACUUGUUUUCUCUUAAGCAUUUCUCCAUGCCGUGGCCGUGAGUAGUUCUUCAAAAGCAUGUUUUUGAUAAUUGUGGAAUUCUCGGGUGCCAA: 32

Series 2 — method: RNAcompete; molecule type: RNA; medium: in vitro; tested at: 20 nM; notes: 7-mer, probes averaged, single round; baseline: mean of 7-mers; reading: higher = stronger binding; measurement: 7-mer Z-score
Target: PABPC1L2, full length, GST fusion (mouse, UniProt A0ABA7IW68)
Residues (chain): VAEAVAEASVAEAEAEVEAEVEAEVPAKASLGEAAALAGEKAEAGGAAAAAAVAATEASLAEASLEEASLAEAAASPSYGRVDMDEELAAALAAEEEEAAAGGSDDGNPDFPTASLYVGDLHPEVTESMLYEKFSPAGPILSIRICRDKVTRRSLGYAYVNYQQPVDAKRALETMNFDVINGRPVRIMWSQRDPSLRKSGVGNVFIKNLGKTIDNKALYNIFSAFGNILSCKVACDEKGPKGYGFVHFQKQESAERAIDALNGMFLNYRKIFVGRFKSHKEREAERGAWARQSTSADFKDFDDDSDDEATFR
GUAUGUU: -0.231
CAUGAAG: -0.113
AUGAAUA: 0.106
CAAACAA: 2.72
UAAGAGG: 0.18
GUCUUCG: -0.383
GGGGUUU: -0.224
GCAUCCG: -0.0863
CUUACCU: -0.318
GCAGGCG: 0.256
AACAGCG: 0.28
UGCCCCG: -0.253
CACCACG: -0.122
CAAUGAG: -0.0935
CAUGCCG: -0.335
CCAGCGA: 0.0968
CUCUGAC: -0.213
AUGUCCU: -0.182
UUUCAUG: -0.389
CAGUUCU: -0.293
AUCCGGA: -0.142

Series 3 — method: RNA Bind-n-Seq; molecule type: RNA; medium: in vitro; tested at: 200 nM; notes: whole 134-nt RNA, ends assumed; together with: 150 mM LiCl; baseline: input library; reading: higher = stronger binding; measurement: log2 enrichment; library: 7-deaza-guanosine replaces G
Target: Ras GTPase-activating protein-binding protein 1, full length (G3BP1, Homo sapiens, UniProt Q13283)
Chain of UniProt Q13283 (whole entry, looked up): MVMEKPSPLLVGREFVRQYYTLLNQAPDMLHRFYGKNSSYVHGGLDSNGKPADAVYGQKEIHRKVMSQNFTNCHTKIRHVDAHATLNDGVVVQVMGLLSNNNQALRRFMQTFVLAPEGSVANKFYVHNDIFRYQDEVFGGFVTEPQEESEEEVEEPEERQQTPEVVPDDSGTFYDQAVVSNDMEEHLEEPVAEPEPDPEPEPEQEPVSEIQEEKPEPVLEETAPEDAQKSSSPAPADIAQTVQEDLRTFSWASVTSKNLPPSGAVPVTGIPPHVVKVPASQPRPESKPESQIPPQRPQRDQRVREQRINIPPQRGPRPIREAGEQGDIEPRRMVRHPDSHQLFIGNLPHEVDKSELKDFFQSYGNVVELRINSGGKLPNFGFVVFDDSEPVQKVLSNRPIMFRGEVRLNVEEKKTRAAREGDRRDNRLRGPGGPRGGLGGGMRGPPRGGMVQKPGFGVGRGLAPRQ
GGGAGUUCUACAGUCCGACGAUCACCAUGCAGGUGGGCAUCUUUGGGAAGUGGGGGAAGGGGGGGAUAGGGAGGGGGGUAACACUUUGGGAACAGGUGGUCCCAGGUCGUUUCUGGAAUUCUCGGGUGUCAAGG: 0.231
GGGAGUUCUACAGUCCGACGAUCGUCCUGUGCUACACAUCGUAUGUACCGAAUCGUGUGUGUGUGUGUGUGUGUGUGUGUGAAAGUAUUAUGUUACGCCGUUCGGAUCUGCACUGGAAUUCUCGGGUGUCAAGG: -0.798
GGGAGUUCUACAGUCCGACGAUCAGUCCUGUGCUACACAUCGUAUGUACCGAAUCGGUUUUUUUGGUUUUUGGAAAAAGGAAAGUAUUAUGUUACGCCGUUCGGAUCUGCACUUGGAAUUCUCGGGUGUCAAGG: -1.7
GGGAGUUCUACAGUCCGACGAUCUCCUGUGCUACACAUCGUAUGUACCGAAUCGGGAAAAAAGGGGAAAAAAGGAAAAAAGGGAAAGUAUUAUGUUACGCCGUUCGGAUCUGCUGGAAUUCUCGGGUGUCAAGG: 0.14
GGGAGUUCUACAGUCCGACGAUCCAAGUCCUGUGCUACACAUCGUAUGUACCGAAUCGGUUUGGAAAAAAAGGAAAGGAAAGUAUUAUGUUACGCCGUUCGGAUCUGCACUUCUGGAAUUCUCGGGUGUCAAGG: -1.27
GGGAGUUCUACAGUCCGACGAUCCAAGUCCUGUGCUACACAUCGUAUGUACCGAAUCGGAAAAGGAAAAGGAAAAGGGGAAAGUAUUAUGUUACGCCGUUCGGAUCUGCACUUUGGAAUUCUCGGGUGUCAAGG: -0.91
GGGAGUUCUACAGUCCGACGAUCUUGGAAGAGACCAGUGAAAUUCGAUCUGACUUGGAGCAGUUAGACCACGAGGUUAAGGAGGCUCAGACACUGUGCGAUGAACUCUCAGUGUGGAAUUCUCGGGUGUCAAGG: 0.229
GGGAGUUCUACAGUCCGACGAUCACCAUGCAGGUGGGCAUCUUUGGGAAGUGGGGCAAGGGGGGGAUAAAGAGGGGGGUAACACUUUGGGAACAGGUGGUCCCAGGUCGUUUCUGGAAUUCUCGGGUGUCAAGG: 0.311

Series 4 — method: aptamer microarray, sandwich; molecule type: DNA with 2'F-ANA; medium: in vitro; tested at: 200 nM; together with: Cy3 exosite-II aptamer, 400 nM; reading: higher = stronger binding; measurement: mean fluorescence intensity; oligonucleotide: GGTTGGTGTGGTTGG
Target: Prothrombin, mature alpha-thrombin (F2, Homo sapiens, UniProt P00734)
Notes: whole 15-mer aptamer, many near background
2'F-ANA at 4 5 7 11 12 13 15: 72.7 a.u.
2'F-ANA at 1 3 5 6 9 11 13 14: 47.1 a.u.
2'F-ANA at 1 3 5 8 9 10 11: 48.5 a.u.
2'F-ANA at 1 2 4 6 7 12 13: 152 a.u.
2'F-ANA at 1 2 4 5 6 7 9 12 13 14: 50.6 a.u.
2'F-ANA at 3 5 6 7 8 9 11 12 13 14: 60.7 a.u.
2'F-ANA at 2 3 5 6 7 8 10 12 13 14 15: 66.3 a.u.
2'F-ANA at 1 4 5 6 8 9 11 12 13 15: 64.3 a.u.
2'F-ANA at 3 4 5 6 7 9 10 11 14 15: 48.5 a.u.
2'F-ANA at 2 5 6 7 11 12 13 15: 82.4 a.u.
2'F-ANA at 1 6 8 11 12 13 14: 66.5 a.u.
2'F-ANA at 3 4 7 8 12 13 14: 460 a.u.
2'F-ANA at 1 2 3 4 6 8 9 11 12 13 14: 64.1 a.u.
2'F-ANA at 2 3 4 5 7 8 9 11 12 13 14: 80.2 a.u.
2'F-ANA at 1 2 4 5 9 10 11 12 15: 46.7 a.u.
2'F-ANA at 1 2 5 6 7 8 11 12 13: 79.1 a.u.
2'F-ANA at 1 2 4 5 9 10 11 12: 105 a.u.
2'F-ANA at 1 2 3 5 6 11 13 15: 58 a.u.
2'F-ANA at 5 8 10 11 12: 50.9 a.u.

Series 5 — method: protein binding microarray; molecule type: double-stranded DNA, one strand shown; medium: in vitro; tested at: not given; baseline: not given; reading: higher = stronger binding; measurement: E-score
Target: Histone acetyltransferase KAT6A, both winged helices, GST fusion (KAT6A, Homo sapiens, UniProt Q92794, residues 1-181)
Notes: 8-mer, flanks averaged, mean of 2 arrays, mostly near background
Construct (chain): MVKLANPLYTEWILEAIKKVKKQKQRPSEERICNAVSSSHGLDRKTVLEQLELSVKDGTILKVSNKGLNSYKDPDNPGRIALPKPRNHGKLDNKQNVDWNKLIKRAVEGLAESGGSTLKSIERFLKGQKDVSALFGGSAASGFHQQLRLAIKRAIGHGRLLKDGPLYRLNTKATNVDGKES
CCTGCGCC: 0.122
ATGCAACA: -0.28
GCACCCCC: -0.0846
AGTCTTGA: 0.0422
AGTGTAGG: -0.209
TGCGTACA: 0.0615
ACACCGAC: 0.193
AGGAATCG: 0.0816
ACGTCGCT: 0.106
ACCTCTGC: -0.0722
AGTCGCTG: 0.0122
ACCAACTA: -0.112
ACGTAGCC: 0.041
ACACGTTC: 0.0385
AATTATCT: -0.0947
CTAATCAC: -0.0404
ACGCGTCC: 0.257
ATTATTTG: 0.0233
GATTGCAA: -0.0312
CTCCGGAG: 0.00663
GGGCATAA: -0.0717
ACCATCGT: -0.0893

Repeated from above (series 4):
2'F-ANA at 2 5 6 7 11 12 13 15: 82.4 a.u.
2'F-ANA at 1 2 4 5 9 10 11 12 15: 46.7 a.u.
2'F-ANA at 4 5 7 11 12 13 15: 72.7 a.u.
2'F-ANA at 1 2 4 6 7 12 13: 152 a.u.
2'F-ANA at 1 2 3 5 6 11 13 15: 58 a.u.
2'F-ANA at 1 2 3 4 6 8 9 11 12 13 14: 64.1 a.u.
2'F-ANA at 2 3 5 6 7 8 10 12 13 14 15: 66.3 a.u.
2'F-ANA at 3 4 7 8 12 13 14: 460 a.u.
2'F-ANA at 1 4 5 6 8 9 11 12 13 15: 64.3 a.u.
2'F-ANA at 5 8 10 11 12: 50.9 a.u.
2'F-ANA at 1 6 8 11 12 13 14: 66.5 a.u.
2'F-ANA at 1 3 5 6 9 11 13 14: 47.1 a.u.
